{"data": "Published values of several laboratories", "note": "Compare with care: the assays were run in different laboratories. Numbers after ± are the reported error."}
{"Structure (SMILES)": "O=S(=O)(c1ccc(-c2ccc3ncnc(Nc4ccc(OCc5cccc(F)c5)c(Cl)c4)c3c2)cc1)N1CCNCC1", "organism": "Trypanosoma cruzi", "assay": "intracellular amastigote growth, β-galactosidase CPRG", "system": "3T3, Tulahuen, β-galactosidase-expressing", "conditions": "96 h", "EC50": "790 nM"}
{"Structure (SMILES)": "O=c1c(O)ccc(-c2cccc(-c3ccccc3)c2)cc1O", "organism": "Hepatitis B virus", "assay": "viral replication, inhibitor, qPCR", "system": "HepDES19", "EC50": "2400 nM"}
{"Structure (SMILES)": "COc1cc(N[C@H](C(=O)c2c[nH]c3ccc(OC(F)(F)F)cc23)c2ccc(Cl)cc2OC)cc(S(C)(=O)=O)c1", "organism": "Zika virus", "assay": "viral replication", "system": "Huh-7.5.1, nanoluciferase reporter", "conditions": "48 h", "EC50": "6880 nM"}
{"Structure (SMILES)": "O=C(CCN(CCC(=O)N[C@@H](Cc1c[nH]c2ccccc12)C(=O)O)C(=O)CCN(CCC(=O)N(CCC(=O)N[C@@H](Cc1c[nH]c2ccccc12)C(=O)O)CCC(=O)N[C@@H](Cc1c[nH]c2ccccc12)C(=O)O)C(=O)CCC(CCC(=O)N(CCC(=O)N(CCC(=O)N[C@@H](Cc1c[nH]c2ccccc12)C(=O)O)CCC(=O)N[C@@H](Cc1c[nH]c2ccccc12)C(=O)O)CCC(=O)N(CCC(=O)N[C@@H](Cc1c[nH]c2ccccc12)C(=O)O)CCC(=O)N[C@@H](Cc1c[nH]c2ccccc12)C(=O)O)(CCC(=O)N(CCC(=O)N(CCC(=O)N[C@@H](Cc1c[nH]c2ccccc12)C(=O)O)CCC(=O)N[C@@H](Cc1c[nH]c2ccccc12)C(=O)O)CCC(=O)N(CCC(=O)N[C@@H](Cc1c[nH]c2ccccc12)C(=O)O)CCC(=O)N[C@@H](Cc1c[nH]c2ccccc12)C(=O)O)[N+](=O)[O-])N[C@@H](Cc1c[nH]c2ccccc12)C(=O)O", "organism": "respiratory syncytial virus", "assay": "viral replication", "system": "HeLa cells, Long", "EC50": "11000 ± 180 nM"}
{"Structure (SMILES)": "Cc1cc(O)c(=O)c(O)cc1C(=O)O", "organism": "Hepatitis B virus", "assay": "viral replication, inhibitor, qPCR", "system": "HepDES19", "EC50": "7200 nM"}
{"Structure (SMILES)": "Fc1cccc(COc2ccc(Nc3ncnc4ccc(-c5ccc(CN6CCOCC6)cc5)cc34)cc2Cl)c1", "organism": "Trypanosoma cruzi", "assay": "intracellular amastigote growth, β-galactosidase CPRG", "system": "3T3, Tulahuen, β-galactosidase-expressing", "conditions": "96 h", "EC50": "600 nM"}
{"Structure (SMILES)": "COC(=O)c1cc(O)c(=O)c(O)cc1C", "organism": "Hepatitis B virus", "assay": "viral replication, inhibitor, qPCR", "system": "HepDES19", "EC50": "1100 nM"}
{"Structure (SMILES)": "O=C(c1cccc(-c2ccc3ncnc(Nc4ccc(OCc5cccc(F)c5)c(Cl)c4)c3c2)c1)N1CCCCC1", "organism": "Trypanosoma cruzi", "assay": "intracellular amastigote growth, β-galactosidase CPRG", "system": "3T3, Tulahuen, β-galactosidase-expressing", "conditions": "96 h", "EC50": "> 50000 nM"}
{"Structure (SMILES)": "Cc1cc(O)c(=O)c(O)cc1-c1cccc2ccccc12", "organism": "Hepatitis B virus", "assay": "viral replication, inhibitor, qPCR", "system": "HepDES19", "EC50": "2300 nM"}
{"Structure (SMILES)": "O=C(CCN(CCC(=O)N[C@@H](Cc1c[nH]c2ccccc12)C(=O)O)C(=O)CCN(CCC(=O)N(CCC(=O)N[C@@H](Cc1c[nH]c2ccccc12)C(=O)O)CCC(=O)N[C@@H](Cc1c[nH]c2ccccc12)C(=O)O)C(=O)c1cc(C(=O)N(CCC(=O)N(CCC(=O)N[C@@H](Cc2c[nH]c3ccccc23)C(=O)O)CCC(=O)N[C@@H](Cc2c[nH]c3ccccc23)C(=O)O)CCC(=O)N(CCC(=O)N[C@@H](Cc2c[nH]c3ccccc23)C(=O)O)CCC(=O)N[C@@H](Cc2c[nH]c3ccccc23)C(=O)O)cc(C(=O)N(CCC(=O)N(CCC(=O)N[C@@H](Cc2c[nH]c3ccccc23)C(=O)O)CCC(=O)N[C@@H](Cc2c[nH]c3ccccc23)C(=O)O)CCC(=O)N(CCC(=O)N[C@@H](Cc2c[nH]c3ccccc23)C(=O)O)CCC(=O)N[C@@H](Cc2c[nH]c3ccccc23)C(=O)O)c1)N[C@@H](Cc1c[nH]c2ccccc12)C(=O)O", "organism": "respiratory syncytial virus", "assay": "viral replication", "system": "HeLa cells, Long", "EC50": "8800 ± 50 nM"}
{"Structure (SMILES)": "COc1ccccc1-c1n[nH]c2nc(N[C@H]3CC[C@H](NS(=O)(=O)CC(C)C)CC3)ncc12", "organism": "Leishmania donovani", "system": "promastigotes, LdBOB CRK12 single knockout", "EC50": "0.8 ± 0.004 nM"}
{"Structure (SMILES)": "C[C@H](NC(=O)Cc1cc(F)cc(F)c1)C(=O)N[C@@H]1C(=O)N(C)c2ccccc2-c2ccccc21", "organism": "Zika virus", "assay": "viral replication", "system": "Huh-7.5.1, nanoluciferase reporter", "conditions": "48 h", "EC50": "262 nM"}
{"Structure (SMILES)": "O=C(CC12CC3CC(CC(C3)C1)C2)NCCOCC(=O)NC1CCN(S(=O)(=O)c2cc(C(=O)Nc3cc(F)c(F)c(F)c3)ccc2F)CC1", "organism": "Hepatitis B virus", "assay": "viral replication, measured: intracellular HBV DNA", "system": "HepG2.2.15", "conditions": "6 days", "EC50": "580 ± 110 nM"}
{"Structure (SMILES)": "Nc1nc(Nc2ccc(Cl)cc2)nn1S(=O)(=O)c1ccc2ccccc2c1", "organism": "Usutu virus", "assay": "viral replication", "system": "Vero 76, TC-508", "EC50": "6400 nM"}
{"Structure (SMILES)": "COc1cc(NC(C(=O)N2CCc3ccc(OC(F)(F)F)cc32)c2ccc(Cl)cc2)cc(OCCCC(=O)O)c1 (stereo not shown)", "organism": "Zika virus", "assay": "viral replication", "system": "Huh-7.5.1, nanoluciferase reporter", "conditions": "48 h", "EC50": "> 10000 nM"}
{"Structure (SMILES)": "CON(C(=O)c1cn(C)nc1C(F)F)C(C)Cc1c(Cl)cc(Cl)cc1Cl (stereo not shown)", "organism": "Ustilaginoidea virens", "assay": "mycelial growth", "conditions": "12 h", "EC50": "0.0326 µg/mL"}
{"Structure (SMILES)": "Fc1cccc(COc2ccc(Nc3ncnc4ccc(-c5ccc(N6CCNCC6)cc5)cc34)cc2Cl)c1", "organism": "Trypanosoma cruzi", "assay": "intracellular amastigote growth, β-galactosidase CPRG", "system": "3T3, Tulahuen, β-galactosidase-expressing", "conditions": "96 h", "EC50": "1400 nM"}
{"Structure (SMILES)": "COC(=O)c1c2c(cc(O)c(=O)c1O)COC2=O", "organism": "Hepatitis B virus", "assay": "viral replication, inhibitor, qPCR", "system": "HepDES19", "EC50": "500 nM"}
{"Structure (SMILES)": "CCC1(CC)CC(=O)N(C2c3cc(C(=O)NC4c5ccccc5CC4O)ccc3OC2(C)COC)C(=N)N1 (stereo not shown)", "organism": "Plasmodium falciparum", "assay": "parasite growth", "system": "Dd2-ATV", "EC50": "0.3 nM"}
{"Structure (SMILES)": "O=C(NNc1ccccc1)c1nnc(C23CC4CC(CC(C4)C2)C3)o1", "organism": "Rhizoctonia solani", "assay": "microbial growth", "EC50": "> 50 µg/mL"}
{"Structure (SMILES)": "CN1CCN(S(=O)(=O)c2ccc(-c3ccc4ncnc(Nc5ccc(OCc6ccccc6)c(Cl)c5)c4c3)cc2)CC1", "organism": "Trypanosoma cruzi", "assay": "intracellular amastigote growth, β-galactosidase CPRG", "system": "3T3, Tulahuen, β-galactosidase-expressing", "conditions": "96 h", "EC50": "3900 nM"}
{"Structure (SMILES)": "O=c1c(O)ccc(-c2ccc(-c3ccccc3)cc2)cc1O", "organism": "Hepatitis B virus", "assay": "viral replication, inhibitor, qPCR", "system": "HepDES19", "EC50": "2800 nM"}
{"Structure (SMILES)": "CN1CCN(S(=O)(=O)c2ccc(-c3ccc4ncnc(Nc5ccc(F)cc5)c4c3)cc2)CC1", "organism": "Trypanosoma cruzi", "assay": "intracellular amastigote growth, β-galactosidase CPRG", "system": "3T3, Tulahuen, β-galactosidase-expressing", "conditions": "96 h", "EC50": "> 50000 nM"}
{"Structure (SMILES)": "CC(=O)CCC1C(=O)NC(C(C)C)C(=O)NC(Cc2cc(O)cc(F)c2)C(=O)N2CCCC(N2)C(=O)OC(C(C)=CC=CC(=O)N2CCCCO2)CC=CC=CC(O)C(C)C1O (stereo not shown)", "organism": "Hepatitis C virus", "assay": "viral replication", "system": "Huh7, Con1 replicon", "conditions": "5% human serum", "EC50": "11 ± 2 nM"}
{"Structure (SMILES)": "Fc1cccc(COc2ccc(Nc3ncnc4ccc(-c5ccc(N6CCCCC6)cc5)cc34)cc2Cl)c1", "organism": "Trypanosoma cruzi", "assay": "intracellular amastigote growth, β-galactosidase CPRG", "system": "3T3, Tulahuen, β-galactosidase-expressing", "conditions": "96 h", "EC50": "7200 nM"}
{"Structure (SMILES)": "Nc1nc(Nc2ccc(Cl)c(Cl)c2)nn1S(=O)(=O)c1ccc2ccccc2c1", "organism": "Zika virus", "assay": "viral replication", "system": "Vero 76, MR766", "EC50": "4800 nM"}
{"Structure (SMILES)": "CC(=O)c1c(C)cc(O)c(=O)c(O)c1Br", "organism": "Hepatitis B virus", "assay": "viral replication, inhibitor, qPCR", "system": "HepDES19", "EC50": "3000 nM"}
{"Structure (SMILES)": "CN1CCN(S(=O)(=O)c2ccc(-c3ccc4ncnc(Nc5ccc(Cl)cc5)c4c3)cc2)CC1", "organism": "Trypanosoma cruzi", "assay": "intracellular amastigote growth, β-galactosidase CPRG", "system": "3T3, Tulahuen, β-galactosidase-expressing", "conditions": "96 h", "EC50": "21400 nM"}
{"note": "A few entries again:"}
{"Structure (SMILES)": "C[C@H](NC(=O)Cc1cc(F)cc(F)c1)C(=O)N[C@@H]1C(=O)N(C)c2ccccc2-c2ccccc21", "organism": "Zika virus", "assay": "viral replication", "system": "Huh-7.5.1, nanoluciferase reporter", "conditions": "48 h", "EC50": "262 nM"}
